Assay results from different studies.
Each line is one published result; not all experiments were run side by side. “And” joins repeats or separate records; there may be more than shown. ± gives the spread as reported.
Uridine nucleoside ribohydrolase: Uridine nucleoside ribohydrolase (Trichomonas vaginalis, UniProt A2FTT0)
PHGDH: D-3-phosphoglycerate dehydrogenase (PHGDH, Homo sapiens, UniProt O43175)
Sequence of UniProt O43175 (whole entry, looked up): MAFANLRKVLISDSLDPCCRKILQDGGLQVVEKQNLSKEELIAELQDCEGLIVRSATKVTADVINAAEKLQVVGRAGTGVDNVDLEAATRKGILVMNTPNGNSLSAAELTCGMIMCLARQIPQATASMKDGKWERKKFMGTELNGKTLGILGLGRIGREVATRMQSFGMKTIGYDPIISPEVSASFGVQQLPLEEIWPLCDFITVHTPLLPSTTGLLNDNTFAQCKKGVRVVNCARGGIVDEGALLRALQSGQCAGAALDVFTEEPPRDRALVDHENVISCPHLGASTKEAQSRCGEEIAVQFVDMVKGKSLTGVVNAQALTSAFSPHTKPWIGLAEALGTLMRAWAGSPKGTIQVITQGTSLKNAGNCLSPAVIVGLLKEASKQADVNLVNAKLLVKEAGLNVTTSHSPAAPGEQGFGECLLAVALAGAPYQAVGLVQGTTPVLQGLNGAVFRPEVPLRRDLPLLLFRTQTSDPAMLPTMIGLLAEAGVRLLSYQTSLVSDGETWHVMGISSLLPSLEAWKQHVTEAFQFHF
MMP2: 72 kDa type IV collagenase (MMP2, Homo sapiens, UniProt P08253)
Sequence of UniProt P08253 (whole entry, looked up): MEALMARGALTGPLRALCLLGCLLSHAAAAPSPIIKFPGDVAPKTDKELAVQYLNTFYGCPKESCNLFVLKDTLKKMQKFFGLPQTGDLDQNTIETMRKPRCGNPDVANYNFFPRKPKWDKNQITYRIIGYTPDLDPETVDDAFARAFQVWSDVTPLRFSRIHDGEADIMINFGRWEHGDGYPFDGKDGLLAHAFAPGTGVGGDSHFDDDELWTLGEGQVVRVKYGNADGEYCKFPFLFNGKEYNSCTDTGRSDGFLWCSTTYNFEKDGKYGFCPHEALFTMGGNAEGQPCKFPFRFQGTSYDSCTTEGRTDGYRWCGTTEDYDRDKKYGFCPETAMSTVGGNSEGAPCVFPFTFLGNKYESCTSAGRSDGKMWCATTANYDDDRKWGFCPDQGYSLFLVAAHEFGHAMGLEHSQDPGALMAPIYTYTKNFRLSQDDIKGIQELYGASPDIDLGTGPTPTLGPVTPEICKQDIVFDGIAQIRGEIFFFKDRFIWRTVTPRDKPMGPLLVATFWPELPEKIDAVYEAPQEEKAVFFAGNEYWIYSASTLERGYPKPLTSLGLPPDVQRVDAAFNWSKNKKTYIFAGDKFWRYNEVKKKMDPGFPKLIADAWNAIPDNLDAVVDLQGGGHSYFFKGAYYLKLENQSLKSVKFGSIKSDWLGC
HTR1D: 5-hydroxytryptamine receptor 1D (HTR1D, Homo sapiens, UniProt P28221)
Sequence of UniProt P28221 (whole entry, looked up): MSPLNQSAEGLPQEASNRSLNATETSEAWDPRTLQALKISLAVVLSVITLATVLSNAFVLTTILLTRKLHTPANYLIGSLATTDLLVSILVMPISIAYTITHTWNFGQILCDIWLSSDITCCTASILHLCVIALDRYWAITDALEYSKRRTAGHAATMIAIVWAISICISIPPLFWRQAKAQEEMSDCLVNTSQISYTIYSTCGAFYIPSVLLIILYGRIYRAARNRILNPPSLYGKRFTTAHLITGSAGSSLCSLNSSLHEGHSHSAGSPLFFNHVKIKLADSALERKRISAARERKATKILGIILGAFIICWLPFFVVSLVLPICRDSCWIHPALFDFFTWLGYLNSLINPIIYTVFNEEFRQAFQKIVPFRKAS
HDAC6: Protein deacetylase HDAC6 (HDAC6, Homo sapiens, UniProt Q9UBN7)
Sequence of UniProt Q9UBN7 (whole entry, looked up): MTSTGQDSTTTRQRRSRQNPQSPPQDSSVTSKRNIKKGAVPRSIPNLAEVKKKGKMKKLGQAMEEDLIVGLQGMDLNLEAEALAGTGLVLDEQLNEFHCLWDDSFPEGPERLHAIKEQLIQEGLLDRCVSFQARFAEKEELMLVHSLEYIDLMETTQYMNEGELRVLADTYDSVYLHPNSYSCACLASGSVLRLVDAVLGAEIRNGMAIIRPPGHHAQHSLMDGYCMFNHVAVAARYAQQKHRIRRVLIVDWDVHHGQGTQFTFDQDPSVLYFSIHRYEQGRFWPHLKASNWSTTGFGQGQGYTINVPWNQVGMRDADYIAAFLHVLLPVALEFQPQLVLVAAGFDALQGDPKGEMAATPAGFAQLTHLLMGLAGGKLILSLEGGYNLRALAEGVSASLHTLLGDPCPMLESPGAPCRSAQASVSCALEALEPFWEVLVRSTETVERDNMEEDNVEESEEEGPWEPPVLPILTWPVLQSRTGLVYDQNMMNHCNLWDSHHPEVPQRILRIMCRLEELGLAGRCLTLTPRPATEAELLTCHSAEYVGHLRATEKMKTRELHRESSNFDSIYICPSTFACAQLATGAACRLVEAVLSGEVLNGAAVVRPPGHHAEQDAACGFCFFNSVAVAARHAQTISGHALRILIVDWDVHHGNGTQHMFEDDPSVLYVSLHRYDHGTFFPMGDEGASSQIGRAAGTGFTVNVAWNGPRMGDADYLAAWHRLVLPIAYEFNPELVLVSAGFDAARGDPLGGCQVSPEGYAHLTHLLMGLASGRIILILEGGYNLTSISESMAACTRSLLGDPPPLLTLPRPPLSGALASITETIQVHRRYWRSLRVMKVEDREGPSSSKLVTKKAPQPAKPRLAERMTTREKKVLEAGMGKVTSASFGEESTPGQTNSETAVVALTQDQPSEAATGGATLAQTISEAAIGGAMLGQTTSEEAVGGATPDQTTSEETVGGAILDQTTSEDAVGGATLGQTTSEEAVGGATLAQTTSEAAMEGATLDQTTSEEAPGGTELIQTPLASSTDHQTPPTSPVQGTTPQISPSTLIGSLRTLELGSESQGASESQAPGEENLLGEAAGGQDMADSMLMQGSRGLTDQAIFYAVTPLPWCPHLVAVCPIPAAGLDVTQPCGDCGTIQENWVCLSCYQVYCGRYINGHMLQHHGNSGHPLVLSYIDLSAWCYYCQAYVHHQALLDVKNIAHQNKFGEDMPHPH
SSTR1: Somatostatin receptor type 1 (SSTR1, Homo sapiens, UniProt P30872)
Sequence of UniProt P30872 (whole entry, looked up): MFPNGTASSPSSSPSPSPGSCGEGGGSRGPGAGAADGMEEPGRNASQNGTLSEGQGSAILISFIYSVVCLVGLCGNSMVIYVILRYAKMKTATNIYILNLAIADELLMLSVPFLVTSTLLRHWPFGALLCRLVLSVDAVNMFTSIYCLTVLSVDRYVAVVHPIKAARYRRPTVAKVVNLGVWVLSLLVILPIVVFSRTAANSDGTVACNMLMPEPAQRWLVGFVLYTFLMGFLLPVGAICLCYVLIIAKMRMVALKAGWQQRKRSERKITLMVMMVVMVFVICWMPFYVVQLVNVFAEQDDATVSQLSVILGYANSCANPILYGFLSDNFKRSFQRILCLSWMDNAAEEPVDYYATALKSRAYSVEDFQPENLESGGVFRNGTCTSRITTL
ERN2: Serine/threonine-protein kinase/endoribonuclease IRE2 (ERN2, Homo sapiens, UniProt Q76MJ5)
TNKS2: Poly [ADP-ribose] polymerase tankyrase-2 (TNKS2, Homo sapiens, UniProt Q9H2K2)
Sequence of UniProt Q9H2K2 (whole entry, looked up): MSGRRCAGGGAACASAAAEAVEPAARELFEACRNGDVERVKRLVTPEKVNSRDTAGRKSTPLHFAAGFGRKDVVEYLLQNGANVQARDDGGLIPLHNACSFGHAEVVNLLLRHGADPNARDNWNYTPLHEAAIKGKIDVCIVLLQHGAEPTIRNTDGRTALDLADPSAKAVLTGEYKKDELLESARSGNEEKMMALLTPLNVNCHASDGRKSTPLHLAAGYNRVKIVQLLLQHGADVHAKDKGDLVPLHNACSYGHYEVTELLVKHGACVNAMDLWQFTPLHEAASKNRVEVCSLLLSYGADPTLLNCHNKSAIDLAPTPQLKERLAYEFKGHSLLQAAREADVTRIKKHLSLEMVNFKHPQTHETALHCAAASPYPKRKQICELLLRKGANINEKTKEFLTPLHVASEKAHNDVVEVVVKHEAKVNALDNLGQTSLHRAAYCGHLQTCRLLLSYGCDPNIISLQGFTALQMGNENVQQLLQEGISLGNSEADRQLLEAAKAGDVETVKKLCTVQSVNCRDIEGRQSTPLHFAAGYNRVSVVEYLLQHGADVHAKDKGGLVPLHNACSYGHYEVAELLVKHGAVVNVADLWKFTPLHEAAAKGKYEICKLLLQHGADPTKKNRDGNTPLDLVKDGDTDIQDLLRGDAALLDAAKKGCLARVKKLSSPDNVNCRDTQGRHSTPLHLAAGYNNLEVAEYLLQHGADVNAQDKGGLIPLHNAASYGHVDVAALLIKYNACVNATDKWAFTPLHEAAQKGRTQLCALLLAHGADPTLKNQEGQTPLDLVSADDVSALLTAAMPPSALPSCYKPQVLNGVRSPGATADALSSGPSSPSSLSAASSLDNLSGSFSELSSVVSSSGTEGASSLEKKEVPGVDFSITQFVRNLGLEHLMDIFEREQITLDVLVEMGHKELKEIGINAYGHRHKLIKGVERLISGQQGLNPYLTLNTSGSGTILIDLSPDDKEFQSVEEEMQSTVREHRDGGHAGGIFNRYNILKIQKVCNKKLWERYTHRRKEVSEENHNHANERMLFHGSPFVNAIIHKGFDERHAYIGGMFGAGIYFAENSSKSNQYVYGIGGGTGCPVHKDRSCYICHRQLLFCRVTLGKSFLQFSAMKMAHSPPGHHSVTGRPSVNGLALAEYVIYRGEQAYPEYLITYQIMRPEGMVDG
Alpha-amylase: Alpha-amylase (Bos taurus, UniProt Q3MHH8)
NPY2R: Neuropeptide Y receptor type 2 (NPY2R, Homo sapiens, UniProt P49146)
Sequence of UniProt Q9NRA0 (whole entry, looked up): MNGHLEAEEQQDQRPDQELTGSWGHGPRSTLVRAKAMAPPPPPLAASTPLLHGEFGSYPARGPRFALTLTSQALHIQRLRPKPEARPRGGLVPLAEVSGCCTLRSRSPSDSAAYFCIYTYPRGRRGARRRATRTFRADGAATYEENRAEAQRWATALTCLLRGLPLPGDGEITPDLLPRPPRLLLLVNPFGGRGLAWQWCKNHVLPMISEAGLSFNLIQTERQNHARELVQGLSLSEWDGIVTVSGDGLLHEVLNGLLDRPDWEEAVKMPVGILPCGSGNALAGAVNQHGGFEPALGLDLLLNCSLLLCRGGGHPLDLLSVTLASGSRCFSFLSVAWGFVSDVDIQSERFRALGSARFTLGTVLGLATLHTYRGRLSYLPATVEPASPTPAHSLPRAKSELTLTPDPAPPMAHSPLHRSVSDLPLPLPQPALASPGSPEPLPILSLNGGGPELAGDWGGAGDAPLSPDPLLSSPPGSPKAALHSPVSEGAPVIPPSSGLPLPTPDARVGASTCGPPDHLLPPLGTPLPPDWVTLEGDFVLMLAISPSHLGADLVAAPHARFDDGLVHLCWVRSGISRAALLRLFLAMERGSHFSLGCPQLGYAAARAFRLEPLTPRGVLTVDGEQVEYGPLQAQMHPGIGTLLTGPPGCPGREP

SMILES = CC(=O)Nc1ccccc1-c1ccc(O)cc1; tested on = Uridine nucleoside ribohydrolase; test = 19F NMR; setting = 100 µM; endpoint = inhibition; value = 100%
SMILES = C=CC(=O)Nc1cccc(-c2cnc3[nH]cc(C(=O)NC(C)(C)C)c3n2)c1; tested on = SPHK2 (Homo sapiens, UniProt Q9NRA0); test = kinase activity; setting = 0.1 µM; endpoint = inhibition; value = 8% and -2%
SMILES = C=C(NC(=O)c1csc(-c2ccc(NC(=O)CCCCCBr)cc2)n1)C(=O)NC(=C)C(=O)OC; tested on = Thioredoxin reductase 2, mitochondrial (Txnrd2, Mus musculus, UniProt Q9JLT4); test = enzyme activity; setting = 50 µM, 1 h, pH 8.0, 37 °C; endpoint = inhibition; value = no inhibition
SMILES = CN(C)C/C=C/C(=O)Nc1ccc2nc(NCCCCCN(C)C)nc(NCCCCCCN(C)C)c2c1; tested on = PRDM9 (Homo sapiens, UniProt Q9NQV7); test = enzyme activity, inhibitor, radiometric; setting = 50 µM; endpoint = inhibition; value = 84%
SMILES = COC(=O)c1cccc2c1NC(=O)C2(O)CC(NC(=O)c1cc2[nH]ncc2cn1)C(=O)O (stereo not drawn); tested on = PHGDH; test = enzyme activity, inhibitor; setting = 25 µM; endpoint = inhibition; value = 26.1%
SMILES = O=C(CNc1nc(Cl)nc(NNC(=O)c2ccc(Nc3nc(Nc4ccc(C(=O)NNc5nc(Cl)nc(NCC(=O)NO)n5)cc4)nc(Nc4ccc(C(=O)NNc5nc(Cl)nc(NCC(=O)NO)n5)cc4)n3)cc2)n1)NO; tested on = MMP2; test = enzyme activity, inhibitor, fluorescence; setting = 0.0001 µg/mL; endpoint = inhibition; value = 28%
SMILES = CC1Cc2ccccc2N1C(=O)CN1CCN(c2ccccc2)CC1 (stereo not drawn); tested on = HTR1D; test = radioligand binding; setting = concentration not given, added: [3H]5-CT; endpoint = inhibition; value = 8.7%
SMILES = O=[N+]([O-])c1ccc(Cn2cc(Cn3cc(CO)nn3)nn2)cc1; tested on = Pleckstrin homology domain-containing family A member 1, PH domain (Homo sapiens, UniProt Q9HB21); test = PI(3,4)P2 binding to PH domain, SPR; setting = 50 µM; endpoint = inhibition; value = 29 ± 5%
SMILES = COc1cc(-n2cc3cc(F)cc(C(N)=O)c3n2)cc(Cl)c1C1CC(O)(CCO)Cc2ccccc21 (stereo not drawn); tested on = PARP3 (Homo sapiens, UniProt Q9Y6F1); test = enzyme activity, inhibitor; setting = 10 µM; endpoint = inhibition; value = 4.94%
SMILES = Cc1c(OS(=O)(=O)Oc2ccc(C(C)C)cc2)cccc1C(=O)NO; tested on = HDAC6; test = enzyme activity, inhibitor, fluorescence; setting = 10 µM; endpoint = inhibition; value = 19%
SMILES = CC(=O)Nc1ccc(F)cc1-c1ccncc1; tested on = Uridine nucleoside ribohydrolase; test = 19F NMR; setting = 50 µM; endpoint = inhibition; value = 45.8%
SMILES = COc1ncc2nc(C)n(Cc3ncc(S(N)(=O)=O)cc3F)c2c1-c1ccccc1; tested on = PDE3A (Homo sapiens, UniProt Q14432); test = enzyme activity, inhibitor; setting = 10 µM, safety panel; endpoint = inhibition; value = -3.28%
SMILES = O=C1c2sc(-c3ccc(N4CCC(F)C4)nc3F)nc2CCN1c1cccnc1 (stereo not drawn); tested on = SSTR1; test = ligand displacement, radioligand; setting = 1 µM; endpoint = inhibition; value = -1%
SMILES = CN1CCN(Cc2ccc(-c3ccc(CO[C@H]4CCC[C@@H]4NC(=O)c4cc(-c5cnn(C)c5)cnc4N)cc3)cc2)CC1; tested on = ERN2; test = enzyme activity, inhibitor; setting = 0.1 µM; endpoint = inhibition; value = 2%
SMILES = Cc1cc(OS(=O)(=O)Oc2ccccc2-c2ccccc2)cc(C(=O)NO)c1; tested on = HDAC6; test = enzyme activity, inhibitor, fluorescence; setting = 10 µM; endpoint = inhibition; value = 40%
SMILES = NC(=O)[C@@H](O)C[C@H]1CCc2sc3ncnc(O[C@H]4CC[C@H](N5CCOCC5)CC4)c3c21; tested on = TTBK2 (Homo sapiens, UniProt Q6IQ55); test = enzyme activity, inhibitor; setting = 10 µM; endpoint = inhibition; value = 1%
SMILES = Cc1nc2c(F)cc(-c3nc(Nc4ccc(CNC(=O)CCCCCCC(=O)NO)cc4)ncc3F)cc2n1C(C)C; tested on = CaMKIγ(h) human kinase; test = enzyme activity; setting = 1 µM; endpoint = inhibition; value = 72%
SMILES = c1ccc(OC[C@H]2CN(CCN3CCc4ccccc43)CCO2)nc1; tested on = HTR1D; test = radioligand binding; setting = concentration not given, added: [3H]5-CT; endpoint = inhibition; value = 20.2%
SMILES = Cc1cc(C(=O)NCCNC(=O)c2cccc(COc3ccccc3C(N)=O)c2)n[nH]1; tested on = TNKS2; test = enzyme activity, inhibitor; setting = 0.5 µM; endpoint = inhibition; value = 100%
SMILES = Cc1cccnc1-c1ccc(C(N)=O)cc1; tested on = Uridine nucleoside ribohydrolase; test = 19F NMR; setting = 100 µM; endpoint = inhibition; value = 100%
SMILES = CC1=NN(c2cccc(F)c2)C(=O)/C1=N\Nc1ccc(S(N)(=O)=O)cc1; tested on = Alpha-amylase; test = enzyme activity, inhibitor, glucose oxidase; setting = 10 µg/mL, added: dextrin; endpoint = inhibition; value = 16.891 ± 0.000383%
SMILES = CC(=O)C12NC(C)(C)CC1(C)C(=O)C1=C2c2c(c3c4n2C(C)(C)CC2=C4C4(CC(C)(C)NC(C)(C4)C2=O)CC3(C)C)C(=O)C(C)(C)N1 (single isomer, unassigned; (+)); tested on = TRPM3 (Homo sapiens, UniProt Q9HCF6); test = antagonist; test system = HEK293T; setting = 10 µM; endpoint = inhibition; value = 25.76 ± 0.09%
SMILES = O=C1c2sc(-c3ccc(N4CCC(CO)CC4)nc3F)nc2CCN1c1cccnc1; tested on = CRHR1 (Homo sapiens, UniProt P34998); test = ligand displacement, radioligand; setting = 1 µM; endpoint = inhibition; value = -9%
SMILES = COCC(=O)N1CCc2cc(-c3csc(NC(=O)c4cc(OC)cc(OC)c4)n3)ccc21; tested on = NPY2R; test = cell-free assay; setting = 10 µM; endpoint = inhibition; value = -1%
SMILES = CCn1cc(C(=O)O)c(=O)c2c(N)c(F)c(NC3CCCCC3)cc21; tested on = ERN2; test = kinase activity; setting = 0.1 µM, added: ATP at Km; endpoint = inhibition; value = -2.8%
SMILES = CN(Cc1ccc(/C=C/C(=O)NO)cc1)CC12CC3CC(CC(C3)C1)C2; tested on = human NTS1 receptor; test = agonist radioligand binding; setting = 0.05 µM; endpoint = inhibition; value = -5%
SMILES = CC(C)Cn1c(SCC(=O)N2CCc3ccccc3C2)nc2cc(Cl)ccc2c1=O; tested on = HTR1D; test = ligand displacement, radioligand; setting = 10 µM; endpoint = inhibition; value = -5%
SMILES = CC1=NN(c2ccccc2F)C(=O)/C1=N\Nc1ccc(S(N)(=O)=O)cc1; tested on = Alpha-amylase; test = enzyme activity, inhibitor, glucose oxidase; setting = 100 µg/mL, added: dextrin; endpoint = inhibition; value = 14.4%
SMILES = O=C(CCCc1ccc2c(c1)OCCO2)NCCNC(=O)Cn1c(=O)[nH]c(=O)c2ccccc21; tested on = TNKS2; test = enzyme activity, inhibitor; setting = 0.5 µM; endpoint = inhibition; value = 12%
SMILES = O=C(NCCCCc1ccccc1)n1c(=O)oc2cc(-c3ccc(F)cc3)ccc21; tested on = PLA2G5 (Homo sapiens, UniProt P39877); test = enzyme activity, inhibitor; setting = 10 µM; endpoint = inhibition; value = 1.1%
SMILES = Cc1cc(Cl)cc(-c2ccnc3cc(CN4C(=O)C5C(C4=O)C5(C)C)sc23)c1C[C@@H]1CNCCO1 (stereo partly drawn); tested on = USP7 (Homo sapiens, UniProt Q93009); test = enzyme activity, inhibitor; setting = 0.05 µM; endpoint = inhibition; value = 121% and 113%
SMILES = CCc1ccc(N2CCC(O)C2)cc1 (stereo not drawn); tested on = Uridine nucleoside ribohydrolase; test = 19F NMR; setting = 50 µM; endpoint = inhibition; value = 12%
SMILES = C[Si]1(C[C@H](CN)CC(=O)O)CCCC1; tested on = NPY2R; test = ligand displacement, radioligand; setting = 70 µM; endpoint = inhibition; value = 7%
SMILES = CN1CCN(CC(=O)c2ccccc2)C1=O; tested on = Uridine nucleoside ribohydrolase; test = 19F NMR; setting = 50 µM, added: 0.01% Triton X-100; endpoint = inhibition; value = 73.9%
SMILES = O=C(CNc1nc(NNC(=O)c2ccc(Nc3nc(Nc4ccc(C(=O)NNc5nc(NCC(=O)NO)nc(N6CCCCC6)n5)cc4)nc(Nc4ccc(C(=O)NNc5nc(NCC(=O)NO)nc(N6CCCCC6)n5)cc4)n3)cc2)nc(N2CCCCC2)n1)NO; tested on = MMP2; test = enzyme activity, inhibitor, fluorescence; setting = 0.001 µg/mL; endpoint = inhibition; value = 70%
SMILES = O=C(CC1CC2CCC1C2)NCCNC(=O)Cn1c(=O)[nH]c(=O)c2ccccc21 (stereo not drawn); tested on = TNKS2; test = enzyme activity, inhibitor; setting = 5 nM; endpoint = inhibition; value = 0%
SMILES = Cn1cc(-c2ccc(C(N)=O)cc2)cn1; tested on = Uridine nucleoside ribohydrolase; test = 19F NMR; setting = 50 µM, added: 0.01% Triton X-100; endpoint = inhibition; value = 100%
SMILES = N#Cc1ccnc(N2C(=O)CC[C@H]2C(=O)N(c2cncc(F)c2)[C@H](C(=O)NC2CC(F)(F)C2)c2ccccc2Cl)c1; tested on = PHGDH; test = enzyme activity; setting = 100 µM; endpoint = inhibition; value = no inhibition
SMILES = C/C=C/C(=O)Nc1ccc2nc(NCCCCCN(C)C)nc(NCCCCCCN(C)C)c2c1; tested on = SMYD2 (Homo sapiens, UniProt Q9NRG4); test = enzyme activity, inhibitor, radiometric; setting = 50 µM; endpoint = inhibition; value = 63%
SMILES = CCN1CCSC1=CC=CC1=[N+](CC)CCS1; tested on = Trypanosoma cruzi; test = reporter mRNA translation, inhibitor, measured: Renilla luciferase mRNA; test system = cell-free extract; setting = concentration not given, test 2; scale = baseline: positive over negative control; endpoint = translation activity; value = 84.6%
SMILES = C[Si](C)(C)C[C@H](CN)CC(=O)O; tested on = SSTR1; test = ligand displacement, radioligand; setting = 250 µM; endpoint = inhibition; value = 0%
SMILES = Cc1cccnc1-c1cccc(C#N)c1; tested on = Uridine nucleoside ribohydrolase; test = 19F NMR; setting = 50 µM, added: 0.01% Triton X-100; endpoint = inhibition; value = 100%
SMILES = O=C(Nc1cc(-c2ccccn2)n[nH]1)N1CC[C@@H](Oc2ccc(F)cc2)C1; tested on = Trypanosoma cruzi; test = reporter mRNA translation, inhibitor, measured: Renilla luciferase mRNA; test system = cell-free extract; setting = concentration not given; scale = baseline: positive over negative control; endpoint = translation activity; value = 96.4% and 142%
SMILES = COc1ccc(CN2CC3CCCCN3C2=O)cc1 (stereo not drawn); tested on = Uridine nucleoside ribohydrolase; test = inhibitor, 19F NMR jump dilution; setting = 20 µM, 1-fold dilution; endpoint = inhibition; value = 100%
SMILES = CCCCCCN(O)C(=O)CCCCC[C@@H]1NC(=O)[C@H]([C@@H](C)CC)NC(=O)[C@H](Cc2ccccc2C(F)(F)F)NC(=O)CCSCc2cccc(n2)CSCCCNC1=O; tested on = HDAC6; test = enzyme activity, inhibitor, fluorogenic; setting = 30 µM; endpoint = inhibition; value = 20%

Excerpt of the above:
SMILES = NC(=O)[C@@H](O)C[C@H]1CCc2sc3ncnc(O[C@H]4CC[C@H](N5CCOCC5)CC4)c3c21; tested on = TTBK2 (Homo sapiens, UniProt Q6IQ55); test = enzyme activity, inhibitor; setting = 10 µM; endpoint = inhibition; value = 1%
SMILES = Cc1nc2c(F)cc(-c3nc(Nc4ccc(CNC(=O)CCCCCCC(=O)NO)cc4)ncc3F)cc2n1C(C)C; tested on = CaMKIγ(h) human kinase; test = enzyme activity; setting = 1 µM; endpoint = inhibition; value = 72%
SMILES = c1ccc(OC[C@H]2CN(CCN3CCc4ccccc43)CCO2)nc1; tested on = HTR1D; test = radioligand binding; setting = concentration not given, added: [3H]5-CT; endpoint = inhibition; value = 20.2%
SMILES = Cc1cc(C(=O)NCCNC(=O)c2cccc(COc3ccccc3C(N)=O)c2)n[nH]1; tested on = TNKS2; test = enzyme activity, inhibitor; setting = 0.5 µM; endpoint = inhibition; value = 100%
